Experimental data pooled from the literature.
Protocols differ between the studies behind these lines. ± marks the error that the study gave.

`CC(=O)OC[C@H]1O[C@@H](Oc2ccc(C#[C][Pt+])cc2)[C@H](OC(C)=O)[C@@H](OC(C)=O)[C@@H]1OC(C)=O.O=S(=O)([O-])C(F)(F)F.c1ccc(-c2cccc(-c3ccccn3)n2)nc1` gave an IC50 of > 100 µM (PLC; cell growth or viability; 24 h).
With `CC(C)C[C@H](NC(=O)CN)C(=O)N[C@H]1CCC[C@@H]1C(=O)N[C@@H](CCCCN)C(=O)N[C@@H](CC(C)C)C(=O)N[C@@H](C)CC(=O)N[C@@H](CCCCN)C(=O)N[C@@H](CCCCN)C(=O)N[C@H]1CCC[C@@H]1C(=O)N[C@@H](CC(C)C)C(=O)N[C@@H](CCCCN)C(=O)N[C@@H](CO)CC(=O)N[C@@H](Cc1ccccc1)C(N)=O` the IC50 was 238 µg/mL (NIH 3T3; cytotoxicity).
With `CC(C)c1ccc(N(C)c2ccc3c(c2)OCC[C@H]3CNc2cnccc2C(=O)O)cc1` the IC50 was 0.00432 µM (P31-FUJ; cell growth or viability, ATP luminescence; 7 days).
For `O=C(OC[C@H]1O[C@@H](Oc2ccc(CO)cc2)[C@H](O)[C@@H](O)[C@@H]1O)c1ccc(O)cc1`, the IC50 was > 200 µM (MDA-MB-231 breast cancer; cell viability, MTT; DMEM with 10% FBS; 48 h).
The IC50 of `COc1cc(N2CCOCC2)ccc1Nc1ncc(Cl)c(Nc2ccccc2NS(C)(=O)=O)n1` is reported as 0.24 ± 0.06 µM (PC-9 EGFR del19/T790M/C797S; cell growth, MTT; 72 h).
With `CC#CC#C/C=C1/O[C@@]2(CCCCO2)[C@@H](O)[C@@H]1O` the IC50 was > 50 µM (RAW264.7; NO release, inhibitor, Griess; LPS-stimulated).
For `COc1cc(-c2cc(C(C)=O)n3ccccc23)cc(OC)c1Cn1ccnc1`, the IC50 was 1.24 µM (MOLM-13; cell growth or viability, ATP luminescence).
The IC50 of `CC(=O)NCCOCCOCCNC(=O)c1cc(C(=O)N2CCNCCNCCNCC2)c(O)c(C(=O)N2CCNCCNCCNCC2)c1` is reported as > 1000 µM (WI-38; cell growth or viability, MTT; 24 h).
For `CC(=O)N[C@@H](CCCNC(=N)N)C(=O)N[C@@H](Cc1c[nH]c2ccccc12)C(=O)N[C@@H](CCCNC(=N)N)C(=O)N[C@@H](Cc1c[nH]c2ccccc12)C(=O)N[C@@H](CCCNC(=N)N)C(=O)N[C@@H](Cc1c[nH]c2ccccc12)C(N)=O`, the IC50 was > 100 µM (MCF-10A; cell viability; 48 h, light irradiation 2.5 min).
With `CC[C@H](C)[C@H](NC(=O)[C@H](CCCCN)NC(=O)[C@H](Cc1ccccc1)NC(=O)[C@H]1CCC[C@@H]1NC(=O)CN)C(=O)N[C@H](CC(=O)N[C@@H](CCCCN)C(=O)N[C@@H](CCCCN)C(=O)N[C@H]1CCC[C@@H]1C(=O)N[C@@H](C)C(=O)N[C@@H](CCCCN)C(=O)N[C@@H](CO)C(=O)N[C@H](CC(N)=O)Cc1ccccc1)[C@@H](C)CC` the IC50 was 64.6 µg/mL (NIH 3T3; cytotoxicity).
`CN1CCC(N[C@H]2CCc3[nH]c4c(C(N)=O)ccc(-c5ccccc5Cl)c4c3C2)CC1` gave an IC50 of 1.58 µM (B16F10; cell proliferation; 96 h).
`CC#CC#C/C=C1/O[C@@]2(CCCCO2)[C@@H](OC(C)=O)[C@@H]1O` gave an IC50 of > 50 µM (RAW264.7; NO release, inhibitor, Griess; LPS-stimulated).
`COc1ccc(C(O)=CC(=O)c2ccc(C(C)(C)C)cc2)cc1.[Ru+2].c1ccc(-c2cccc(-c3ccccn3)n2)nc1.c1cnccn1` has an IC50 of 0.11 µM (HL-60; phototoxicity; light over 450 nm, 29.1 J/cm2).
With `CC[C@H](C)[C@H](NC(=O)C[C@H](CCCCN)NC(=O)[C@H](CCCCN)NC(=O)C[C@@H](NC(=O)[C@@H](NC(=O)C[C@H](CCCCN)NC(=O)[C@H](Cc1ccccc1)NC(=O)C[C@H](CC(C)C)NC(=O)CN)[C@@H](C)CC)[C@@H](C)CC)C(=O)N[C@@H](C)CC(=O)N[C@@H](CCCCN)C(=O)N[C@@H](CO)CC(=O)N[C@@H](Cc1ccccc1)C(N)=O` the IC50 was > 128 µg/mL (NIH 3T3; cytotoxicity).
For `CC(=O)NCCOCCNC(=O)c1cc(C(=O)N2CCNCCNCCNCC2)c(O)c(C(=O)N2CCNCCNCCNCC2)c1`, the IC50 was > 1000 µM (WI-38; cell growth or viability, MTT; 24 h).
For `O=C(c1cc(Cc2n[nH]c(=O)c3ccccc23)ccc1F)N1CCN(C(=O)C2CC2)CC1`, the IC50 was 0.017 µM (DLD-1 BRCA2 knockout; cell viability).
`CNS(=O)(=O)Nc1nccc(Cc2c(C)c3ccc(Oc4ncccc4F)cc3oc2=O)c1F` has an IC50 of > 1 µM (HCC1500; cell viability; 7 days).
The IC50 of `NC(=O)c1ccc(-c2ccccc2Cl)c2c3c([nH]c12)CC[C@@H](N)C3` is reported as 0.0293 µM (A-375; cell growth or viability).
`CC(C)C(=O)Cc1c(OCC(O)C(C)(C)O)ccc2ccc(=O)oc12` (centres unmarked) has an IC50 of > 100 µM (COLO 205; cell growth or viability, MTT; 72 h).
`NCCOc1cc(NC(=O)c2cc(OCc3cn(Cc4ccc(C(=O)O)cc4)nn3)cc(C(=O)Nc3cc(OCCN)c4ccccc4n3)n2)nc2ccccc12` gave an IC50 of > 40 µM (WI-38; cell growth or viability, ATP luminescence; 72 h).
`C=CC(=O)N1CCCC(n2c(=O)c3ncccc3n(Cc3ccc(Oc4ccccc4)cc3)c2=O)C1` (centres unmarked) gave an IC50 of 2 µM (L-82; cell growth or viability, MTT; 72 h).
With `CCOc1cncc(-c2ccc(NC(=O)C3(c4ccnc(NS(=O)(=O)C5CC5)n4)CCOCC3)nc2)n1` the IC50 was 3.58 µM (IM-9; cell growth or viability, ATP luminescence; 72 h).
For `Cc1ccc([N+](=O)[O-])cc1S(=O)(=O)N(C)/N=C/c1cnc2ccc(Br)cn12`, the IC50 was 2.18 µM (COLO 205; cell viability, MTS).
`CC[C@H](C)[C@H](NC(=O)[C@H](CCCCN)NC(=O)[C@H](Cc1ccccc1)NC(=O)[C@H]1CCC[C@@H]1NC(=O)CN)C(=O)N[C@H](CC(=O)N[C@@H](CCCCN)C(=O)N[C@@H](CCCCN)C(=O)N[C@H](CC(=O)N[C@@H](CC(C)C)C(=O)N[C@@H](CCCCN)C(=O)N[C@@H](CC(C)C)C(=O)N[C@H](CC(N)=O)Cc1ccccc1)[C@@H](C)CC)[C@@H](C)CC` has an IC50 of 4.1 µg/mL (NIH 3T3; cytotoxicity).
The IC50 of `Cc1cc(C)cc(COc2cc3c(cc2OCc2cc(C)cc(C)c2)[C@H]2C[C@@](O)(Cc4cn(Cc5ccc(F)cc5)nn4)C[C@@H](C)N2CC3)c1` is reported as 0.486 µM (ASPC1; cell growth or viability, MTT).
`C=CC(=O)N1CCC([C@@H]2CCNc3c(C(N)=O)c(-c4ccc(Oc5ccccc5)cc4)nn32)CC1` gave an IC50 of 0.00415 µM (Ramos; IP1 production, HTRF; 4 h, with: anti-IgM).
With `C[C@@]1(CO)CC[C@]2(CO)CC[C@]3(C)C(=CCC4[C@@](C)(CCC(=O)O)C([C@@](C)(O)CO)CC[C@]43C)[C@@H]2C1` (some centres unmarked) the IC50 was > 100 µM (RAW264.7; NO release, inhibitor, Griess; LPS-stimulated).
The IC50 of `COc1cc(-c2cn(C)c(=O)c3cnccc23)c(OC)cc1CN(C)C` is reported as 69.9 µM (MOLM-13; cell growth or viability, ATP luminescence).
`COc1cc(-n2cc3cc(F)cc(C(N)=O)c3n2)cc(Cl)c1C1CC(O)(CCO)CC2CCCC21` (centres unmarked) has an IC50 of 0.33 µM (Caco-2; cell growth or viability, MTT; 72 h).
The IC50 of `CC[C@H](C)[C@H](NC(=O)[C@H](CCCCN)NC(=O)[C@H](CCCCN)NC(=O)C[C@@H](NC(=O)[C@@H](NC(=O)[C@H](CCCCN)NC(=O)[C@H](Cc1ccccc1)NC(=O)C[C@H](CC(C)C)NC(=O)CN)[C@@H](C)CC)[C@@H](C)CC)C(=O)N[C@@H](C)CC(=O)N[C@@H](CCCCN)C(=O)N[C@@H](CO)C(=O)N[C@@H](Cc1ccccc1)C(N)=O` is reported as 90 µg/mL (NIH 3T3; cytotoxicity).
The IC50 of `Cn1ncc(-c2ccc3c(=O)[nH]nc(CN)c3c2)c1-c1c(F)c(Cl)cc(OC2CC2)c1C#N` is reported as 0.4 µM (NCI-H322; cell viability, CellTiter-Glo; 120 h).
The IC50 of `CC1(C)[C@H](NC(=O)c2cnn(CCO)c2)C(C)(C)[C@H]1Oc1ccc(C#N)c(Cl)c1` is reported as 3.2 µM (HCC1428; cell growth or viability, CCK-8; 7 days).
For `COC(=O)N1c2ccc3c(nc(Cc4ccccc4)n3[C@@H]3CCC[C@@H](C(=O)O)C3)c2CC[C@@H]1C`, the IC50 was 0.66 µM (HCC1428; cell growth or viability, ATP luminescence; 10 days).
For `CC[C@H](C)[C@H](NC(=O)[C@H](CCCCN)NC(=O)[C@H](Cc1ccccc1)NC(=O)[C@H]1CCC[C@@H]1NC(=O)[C@@H](N)CCCCN)C(=O)N[C@H](CC(=O)N[C@@H](CCCCN)C(=O)N[C@@H](CCCCN)C(=O)N[C@H]1CCC[C@@H]1C(=O)N[C@@H](C)C(=O)N[C@@H](CCCCN)C(=O)N[C@@H](CO)C(=O)N[C@H](CC(N)=O)Cc1ccccc1)[C@@H](C)CC`, the IC50 was 63.2 µg/mL (NIH 3T3; cytotoxicity).
`CC1CCC2(CO)CCC3(C)C(=CCC4C(C)(CCC(=O)O)C(C(C)(O)CO)CC(O)C43C)C2C1C` (centres unmarked) has an IC50 of > 100 µM (RAW264.7; NO release, inhibitor, Griess; LPS-stimulated).

Repeated from above:
`COc1ccc(C(O)=CC(=O)c2ccc(C(C)(C)C)cc2)cc1.[Ru+2].c1ccc(-c2cccc(-c3ccccn3)n2)nc1.c1cnccn1` has an IC50 of 0.11 µM (HL-60; phototoxicity; light over 450 nm, 29.1 J/cm2).
For `O=C(OC[C@H]1O[C@@H](Oc2ccc(CO)cc2)[C@H](O)[C@@H](O)[C@@H]1O)c1ccc(O)cc1`, the IC50 was > 200 µM (MDA-MB-231 breast cancer; cell viability, MTT; DMEM with 10% FBS; 48 h).
For `O=C(c1cc(Cc2n[nH]c(=O)c3ccccc23)ccc1F)N1CCN(C(=O)C2CC2)CC1`, the IC50 was 0.017 µM (DLD-1 BRCA2 knockout; cell viability).
`CC#CC#C/C=C1/O[C@@]2(CCCCO2)[C@@H](OC(C)=O)[C@@H]1O` gave an IC50 of > 50 µM (RAW264.7; NO release, inhibitor, Griess; LPS-stimulated).
For `Cc1ccc([N+](=O)[O-])cc1S(=O)(=O)N(C)/N=C/c1cnc2ccc(Br)cn12`, the IC50 was 2.18 µM (COLO 205; cell viability, MTS).
